# Results pooled from the literature.
# Each line is one published result; not all experiments were run side by side. ± gives the spread as reported.
Compound,tested on,test,system,conditions,how to read,endpoint,result
CCn1cc(-c2cc(Cn3ccoc3=N)cc3c2CCN([C@@H](C)c2cc(OC)ccn2)C3=O)c(C(F)(F)F)n1,HCC38,"cell growth, inhibitor",,120 h,,EC50,0.0541 µM
CCC[C@@H]1C[C@@H](C(=O)N[C@@H]([C@H]2O[C@H](SC)[C@H](O)[C@@H](O)[C@H]2O)[C@H](C)Cl)N(C)C1,THP-1,pyroptotic LDH release,,"2 µM, 40 min, added: LPS then nigericin",,inhibition,16.6%
CN(c1ccc(F)cc1)c1c(-c2cccc(F)n2)nc2ccccn12,Leishmania infantum,,MHOM/MA(BE)/67/ITMAP263,120 h,relative to: CC50 macrophages over EC50 amastigotes,selectivity index,6.3
CN[C@@H](C)C(=O)N[C@H](C(=O)N1CCC[C@H]1c1nc(C(=O)c2ccc(F)cc2)cs1)C1CCCCC1,HEK293T ATF4-FLuc reporter,"ATF4 reporter gene, activator, luciferase reporter",,,,EC50,> 9.96 µM
COc1cc2c(c(O)c1OC)C(=O)c1c(cc(C)c(O)c1OC)C2=O,HK-2 co-cultured with HepaRG,MTT,,"133.33 µM, 24 h",relative to: untreated control,cell viability,33.2 ± 6.86%
C[C@H](NCc1ccc(OCc2cccc(F)c2)cc1)C(N)=O,THP-1,pyroptotic LDH release,,"2 µM, 40 min, added: LPS then nigericin",,inhibition,-29.2%
COc1ccc2c(N(C)c3ccc(/C(C)=N/OCCN)cc3)c3c(Cl)coc3nc2c1,docetaxel-resistant VCaP-AI,trypan blue exclusion,,"1 µM, 72 h",,inhibition of cell proliferation,70 to 80%
O=C(O)Cc1ccc(O)cc1,Caco-2/THP-1 co-culture,TEER,,"0.25 µg/mL, added: LPS 250 ng/mL",relative to: control,transepithelial electrical resistance,84.1 ± 8.6%
CN1CCN2c3c(cccc31)[C@@H]1CN(CCCC(=O)c3ccc(F)cc3)CC[C@@H]12,THP-1,pyroptotic LDH release,,"2 µM, 40 min, added: LPS then nigericin",,inhibition,-12%
Cn1cncc1[C@@](N)(c1ccc(Cl)cc1)c1ccc2c(c1)c(-c1cccc(Cl)c1)cc(=O)n2C,HEK293T ATF4-FLuc reporter,"ATF4 reporter gene, activator, luciferase reporter",,,,EC50,7.38 µM
CCCCCCCC(=O)c1c(O)cc(O)cc1CC(=O)OCC,THP-1,pyroptotic LDH release,,"2 µM, 40 min, added: LPS then nigericin",,inhibition,9.92%
COc1cnc2cccc(N3CCc4c(cc(Cn5ccnc5C)cc4-c4cn(C)nc4C(F)(F)F)C3=O)c2c1,SUM-159-PT,"cell growth, inhibitor",,120 h,,EC50,1.99 µM
Cn1cc(-c2ccc(-c3cncc(Cl)c3N3CCC4(CCNC4=O)CC3)cc2)cn1,COLO 205,"gene expression, microarray, item: HSPA5 (GRP78) mRNA",,"concentration not given, 2 h",relative to: untreated cells,log2 fold change,1.77
Cc1nc2cnccc2n1-c1ccc(OCc2cccc(/C=C/c3nc4cc(F)ccc4s3)c2)cc1,HEK293T ATF4-FLuc reporter,"ATF4 reporter gene, activator, luciferase reporter",,,,EC50,> 9.96 µM
CCN(CC)CCS(=O)(=O)[C@@H]1CCN2C(=O)c3coc(n3)CC(=O)C[C@H](O)/C=C(C)/C=C/CNC(=O)/C=C/[C@@H](C)[C@@H](C(C)C)OC(=O)[C@@H]12,THP-1,pyroptotic LDH release,,"2 µM, 40 min, added: LPS then nigericin",,inhibition,-43.3%
COc1c(O)c(C)cc2c1C(=O)c1c(ccc(O)c1O)C2=O,HK-2 co-cultured with HepaRG,MTT,,"66.67 µM, 24 h",relative to: untreated control,viability,84 ± 112%
COC[C@H](NC(=O)c1cnc(C)s1)C(=O)N[C@@H](COC)C(=O)N[C@@H](Cc1ccccc1)C(=O)[C@@]1(C)CO1,HEK293T ATF4-FLuc reporter,"ATF4 reporter gene, activator, luciferase reporter",,,,EC50,0.285 µM
O=C(O)c1cccc(F)c1,THP-1,pyroptotic LDH release,,"2 µM, 40 min, added: LPS then nigericin",,inhibition,-4.62%
CCn1cc(-c2cc(Cn3ccnc3)cc3c2CCN([C@H](c2cc(OC)ccn2)C2CC2)C3=O)c(C(F)(F)F)n1,MIA PaCa-2,cell growth,,120 h,,EC50,8.49 µM
Fc1ccc(Nc2c(Cn3cccn3)nc3ccccn23)cc1,Leishmania infantum,,"intramacrophage amastigotes, MHOM/MA(BE)/67/ITMAP263",,,IC50,> 64 µM
COC(=O)C1=C(C)NC(C)=C(C(=O)OC/C=C/c2ccc(Cn3ccnc3)cc2)C1c1cccc([N+](=O)[O-])c1 (stereo not shown),HEK293T ATF4-FLuc reporter,"ATF4 reporter gene, activator, luciferase reporter",,,,EC50,> 9.96 µM
O=C(/C=C/C=C/C=C/C1CCCCC1)NC1=C[C@@](O)(/C=C/C=C/C=C/C(=O)NC2=C(O)CCC2=O)[C@@H]2O[C@@H]2C1=O,NCI-H1975,"cell growth, CellTiter-Glo",,78 h,,GI50,18.5 µM

# A few entries again:
Compound,tested on,test,system,conditions,how to read,endpoint,result
CN(c1ccc(F)cc1)c1c(-c2cccc(F)n2)nc2ccccn12,Leishmania infantum,,MHOM/MA(BE)/67/ITMAP263,120 h,relative to: CC50 macrophages over EC50 amastigotes,selectivity index,6.3
CN[C@@H](C)C(=O)N[C@H](C(=O)N1CCC[C@H]1c1nc(C(=O)c2ccc(F)cc2)cs1)C1CCCCC1,HEK293T ATF4-FLuc reporter,"ATF4 reporter gene, activator, luciferase reporter",,,,EC50,> 9.96 µM
COc1cc2c(c(O)c1OC)C(=O)c1c(cc(C)c(O)c1OC)C2=O,HK-2 co-cultured with HepaRG,MTT,,"133.33 µM, 24 h",relative to: untreated control,cell viability,33.2 ± 6.86%
